{"data": "Measurements pooled from the literature", "note": "Compare with care: the assays were run in different laboratories. Several values in a cell are separate wells, animals, samples, runs or records. ± gives the spread as reported."}
{"Compound": "CC1(C)C(NC(=O)C(=NOC2(C(=O)O)CC2)c2csc(N)n2)C(=O)N1OS(=O)(=O)O (centres unmarked)", "organism": "Klebsiella pneumoniae", "system": "17-29, ESBL", "setting": "compound alone", "quantity": "MIC", "value": "2 µg/mL"}
{"Compound": "C=C(NC(=O)c1csc(-c2nc3c(cc2O)-c2nc(cs2)C(=O)NC(C(C)O)C(=O)NC(=C(C)OC)c2nc(cs2)C(=O)NC2c4nc(cs4)C(=O)NC(COC(=O)c4c5c6c(cccc6n4O)COC(=O)C(OC4CC(C)(O)C(N(C)C)C(C)O4)C2OC5)c2nc-3cs2)n1)C(N)=O (centres unmarked)", "organism": "Streptococcus pneumoniae", "system": "-4, immunocompromised mice, lung", "setting": "32 mg/kg/day once daily, 24 h post-dose", "quantity": "lung bacterial load", "value": "4.15 log10 CFU/lung"}
{"Compound": "CC1(C)[C@H](NC(=O)/C(=N\\OCCN)c2nsc(N)n2)C(=O)N1OS(=O)(=O)O", "organism": "Serratia marcescens", "assay": "agar dilution", "system": "ATCC 21074, susceptible", "quantity": "MIC", "value": "16 µg/mL"}
{"Compound": "c1ccc2c(Cc3c[nH]c4ccccc34)c[nH]c2c1", "organism": "Bacteroides fragilis", "assay": "microbial growth, absorbance", "quantity": "IC50", "value": "20 µM"}
{"Compound": "CC(C)(C)NCC(SS(=O)(=O)O)c1ccccc1 (centres unmarked)", "organism": "Schistosoma mansoni", "assay": "perfusion day 52", "system": "infected Swiss Webster mice", "setting": "600 mg/kg single dose, dosed day 7 post-infection", "quantity": "liver weight", "value": "4.6 g and 5.2 g and 3.2 g and 2.94 g"}
{"Compound": "N=C(N)NCCC[C@@H]1NC(=O)[C@H](CCCNC(=N)N)NC(=O)[C@@H](C(c2ccccc2)c2ccccc2)NC(=O)[C@H](Cc2c[nH]c3ccccc23)NC(=O)[C@@H](C(c2ccccc2)c2ccccc2)NC(=O)[C@@H](CCCNC(=N)N)NC(=O)[C@@H](CCCNC(=N)N)NC1=O", "organism": "Aspergillus fumigatus", "system": "Af 293", "setting": "4 x MIC, 12 h", "quantity": "reduction of viable cells", "value": "> 95%"}
{"Compound": "COc1ccccc1-c1n[nH]c2nc(NC3CCN(C(=O)Cc4ccc(F)cc4F)CC3)ncc12", "organism": "Leishmania donovani", "assay": "parasite growth", "setting": "amastigote", "quantity": "EC50", "value": "0.0251 µM"}
{"Compound": "Cc1ccccc1/C=C/C(=O)N[C@H]1COC(=O)[C@H](CC(=O)O)NC(=O)[C@H]([C@@H](O)C(=O)c2ccccc2N)NC(=O)[C@@H](Cc2ccccc2)NC(=O)[C@@H](NC(=O)[C@@H](Cc2ccccc2)NC(=O)CN)[C@@H](C)OC1=O", "organism": "Mycobacterium avium", "assay": "resazurin microtitre", "system": "104", "setting": "4 days, 37 °C", "quantity": "MIC50", "value": "inactive"}
{"Compound": "C[C@@H]1C(=O)O[C@@H](C)/C=C/C=C\\[C@@H](C)[C@@H]2C=C[C@@H]3C[C@@]4(C)O[C@H]4[C@@H](C)[C@H]3[C@@H]2C(=O)C(Cl)(Cl)C1=O", "organism": "Staphylococcus aureus", "system": "MSSA clinical isolate", "setting": "resistant: CIP,DAP,MXF", "quantity": "MIC", "value": "0.0125 µg/mL"}
{"Compound": "CNCc1ccc2c(c1)N(C(=O)OCc1c(F)c(F)c(F)c(F)c1F)[C@H](CNC(=N)N)[C@H]2NC(=O)C(=O)Nc1ccc(Cl)c(F)c1", "organism": "HIV-1", "assay": "pseudovirus infection, Env pseudovirus neutralisation", "system": "TZM-bl, clade C T/F isolate 2A2", "quantity": "IC80", "value": "13.1 µM"}
{"Compound": "Cc1cc(C(=O)Nc2nc3cccc(C)c3n2[C@H]2CCCCN(C(=O)/C=C/CN(C)C)C2)ccn1", "organism": "Trypanosoma brucei brucei", "assay": "cell growth, CellTiter-Glo", "system": "Lister 427 bloodstream form", "setting": "48 h, mean of 2 experiments", "quantity": "EC50", "value": "0.074 µM"}
{"Compound": "Cc1cccc2c1N(C(=O)n1ccnn1)CC2", "organism": "Arabidopsis thaliana", "system": "kai2 mutant", "setting": "10 µM", "quantity": "germination rate", "value": "17.3%"}
{"Compound": "COc1cc(C2CC(=O)Nc3nc(N)[nH]c(=O)c32)ccc1O (centres unmarked)", "organism": "Leishmania donovani", "assay": "MTT", "system": "AG83 wild type promastigotes", "setting": "48 h", "quantity": "IC50", "value": "57.1 ± 0.8 µM"}
{"Compound": "COC1C=COC2(C)Oc3c(C)c(O)c4c(c3C2=O)C2=NC3(CCN(CC(C)C)CC3)NC2=C(NC(=O)C(C)=CC=CC(C)C(O)C(C)C(O)C(C)C(OC(=O)Nc2cnccn2)C1C)C4=O (centres unmarked)", "organism": "Mycobacteroides abscessus", "assay": "intracellular growth, visual read", "system": "THP-1 derived macrophages, ATCC 19977", "quantity": "IC90", "value": "0.33 µM"}
{"Compound": "O=C1C(O)=C([C@H]2CC[C@H](c3ccc(Cl)cc3)CC2)C(=O)c2ccccc21", "organism": "Toxoplasma gondii", "assay": "bradyzoite growth", "setting": "glutamine-induced bradyzoites", "quantity": "EC50", "value": "0.063 µM"}
{"Compound": "c1ccc2c(Cc3c(-c4c[nH]c5ccccc45)[nH]c4ccccc34)c[nH]c2c1", "organism": "Parabacteroides distasonis", "assay": "bacterial growth, inhibitor, OD600", "setting": "anaerobic", "quantity": "IC50", "value": "> 50 µM"}
{"Compound": "N=C(N)NCCC[C@@H]1NC(=O)[C@@H](CCCNC(=N)N)NC(=O)[C@H](CCCNC(=N)N)NC(=O)[C@@H](C(c2ccccc2)c2ccccc2)NC(=O)[C@@H](C(c2ccccc2)c2ccccc2)NC(=O)[C@@H](C(c2ccccc2)c2ccccc2)NC(=O)[C@@H](CCCNC(=N)N)NC1=O", "organism": "Aspergillus fumigatus", "assay": "fungal growth", "quantity": "MIC", "value": "> 64 µg/mL"}
{"Compound": "O=c1c(-c2nc3ccccc3s2)cc2c(n1NS(=O)(=O)c1ccc(Cl)cc1)CCCCCC2", "organism": "hepatitis C virus", "assay": "qRT-PCR", "system": "Huh7.5, genotype 4", "setting": "concentration not given", "quantity": "viral load reduction", "value": "56.7%"}
{"Compound": "CC(C)CC(c1c[nH]c2ccccc12)c1c[nH]c2ccccc12", "organism": "Bacteroides fragilis", "assay": "microbial growth, absorbance", "quantity": "IC50", "value": "81 µM"}
{"Compound": "CN(Cc1ccc(C2(C(F)(F)F)CCC2)cc1)Cc1cccc2ccccc12", "organism": "Trichophyton rubrum", "assay": "microbial growth, disc diffusion", "system": "ATCC28188", "setting": "0.002 µg/mL, 6 days", "quantity": "inhibition zone", "value": "4.75 mm"}
{"note": "Excerpt of the above:"}
{"Compound": "O=C1C(O)=C([C@H]2CC[C@H](c3ccc(Cl)cc3)CC2)C(=O)c2ccccc21", "organism": "Toxoplasma gondii", "assay": "bradyzoite growth", "setting": "glutamine-induced bradyzoites", "quantity": "EC50", "value": "0.063 µM"}
{"Compound": "c1ccc2c(Cc3c(-c4c[nH]c5ccccc45)[nH]c4ccccc34)c[nH]c2c1", "organism": "Parabacteroides distasonis", "assay": "bacterial growth, inhibitor, OD600", "setting": "anaerobic", "quantity": "IC50", "value": "> 50 µM"}
{"Compound": "N=C(N)NCCC[C@@H]1NC(=O)[C@@H](CCCNC(=N)N)NC(=O)[C@H](CCCNC(=N)N)NC(=O)[C@@H](C(c2ccccc2)c2ccccc2)NC(=O)[C@@H](C(c2ccccc2)c2ccccc2)NC(=O)[C@@H](C(c2ccccc2)c2ccccc2)NC(=O)[C@@H](CCCNC(=N)N)NC1=O", "organism": "Aspergillus fumigatus", "assay": "fungal growth", "quantity": "MIC", "value": "> 64 µg/mL"}
